Measured values from different studies.
Each numbered part is a random draw from the data of one study; scales do not carry over between parts.
Sequence of UniProt O00506 (whole entry, looked up): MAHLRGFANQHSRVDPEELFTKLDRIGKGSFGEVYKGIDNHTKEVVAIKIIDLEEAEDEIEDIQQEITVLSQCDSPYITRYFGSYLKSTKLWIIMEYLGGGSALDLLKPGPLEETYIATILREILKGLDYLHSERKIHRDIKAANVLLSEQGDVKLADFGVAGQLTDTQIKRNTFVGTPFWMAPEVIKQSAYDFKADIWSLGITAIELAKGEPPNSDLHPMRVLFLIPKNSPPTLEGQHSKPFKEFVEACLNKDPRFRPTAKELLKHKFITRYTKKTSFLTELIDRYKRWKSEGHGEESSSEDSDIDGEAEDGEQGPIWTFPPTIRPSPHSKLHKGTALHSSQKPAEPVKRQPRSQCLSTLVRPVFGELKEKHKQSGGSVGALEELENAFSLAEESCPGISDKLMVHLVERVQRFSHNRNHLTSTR
Sequence of UniProt P24723 (whole entry, looked up): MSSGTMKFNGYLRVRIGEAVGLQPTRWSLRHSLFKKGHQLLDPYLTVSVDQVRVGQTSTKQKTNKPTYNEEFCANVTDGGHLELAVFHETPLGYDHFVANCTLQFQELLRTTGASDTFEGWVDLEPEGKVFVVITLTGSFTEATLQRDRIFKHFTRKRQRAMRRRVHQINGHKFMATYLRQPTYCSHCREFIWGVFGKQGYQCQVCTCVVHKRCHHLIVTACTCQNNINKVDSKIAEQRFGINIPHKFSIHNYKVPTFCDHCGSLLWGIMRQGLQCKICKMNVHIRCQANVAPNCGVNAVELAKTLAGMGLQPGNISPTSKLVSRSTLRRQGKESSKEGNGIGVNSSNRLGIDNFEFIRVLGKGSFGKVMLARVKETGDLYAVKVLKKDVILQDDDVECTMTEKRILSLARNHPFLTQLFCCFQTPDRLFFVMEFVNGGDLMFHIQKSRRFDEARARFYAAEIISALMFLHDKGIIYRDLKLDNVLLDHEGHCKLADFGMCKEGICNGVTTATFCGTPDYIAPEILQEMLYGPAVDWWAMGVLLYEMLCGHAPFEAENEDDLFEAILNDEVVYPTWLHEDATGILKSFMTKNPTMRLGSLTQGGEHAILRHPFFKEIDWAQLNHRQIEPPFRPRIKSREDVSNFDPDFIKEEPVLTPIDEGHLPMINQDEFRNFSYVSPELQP
Sequence of UniProt P42336 (whole entry, unmodified, looked up): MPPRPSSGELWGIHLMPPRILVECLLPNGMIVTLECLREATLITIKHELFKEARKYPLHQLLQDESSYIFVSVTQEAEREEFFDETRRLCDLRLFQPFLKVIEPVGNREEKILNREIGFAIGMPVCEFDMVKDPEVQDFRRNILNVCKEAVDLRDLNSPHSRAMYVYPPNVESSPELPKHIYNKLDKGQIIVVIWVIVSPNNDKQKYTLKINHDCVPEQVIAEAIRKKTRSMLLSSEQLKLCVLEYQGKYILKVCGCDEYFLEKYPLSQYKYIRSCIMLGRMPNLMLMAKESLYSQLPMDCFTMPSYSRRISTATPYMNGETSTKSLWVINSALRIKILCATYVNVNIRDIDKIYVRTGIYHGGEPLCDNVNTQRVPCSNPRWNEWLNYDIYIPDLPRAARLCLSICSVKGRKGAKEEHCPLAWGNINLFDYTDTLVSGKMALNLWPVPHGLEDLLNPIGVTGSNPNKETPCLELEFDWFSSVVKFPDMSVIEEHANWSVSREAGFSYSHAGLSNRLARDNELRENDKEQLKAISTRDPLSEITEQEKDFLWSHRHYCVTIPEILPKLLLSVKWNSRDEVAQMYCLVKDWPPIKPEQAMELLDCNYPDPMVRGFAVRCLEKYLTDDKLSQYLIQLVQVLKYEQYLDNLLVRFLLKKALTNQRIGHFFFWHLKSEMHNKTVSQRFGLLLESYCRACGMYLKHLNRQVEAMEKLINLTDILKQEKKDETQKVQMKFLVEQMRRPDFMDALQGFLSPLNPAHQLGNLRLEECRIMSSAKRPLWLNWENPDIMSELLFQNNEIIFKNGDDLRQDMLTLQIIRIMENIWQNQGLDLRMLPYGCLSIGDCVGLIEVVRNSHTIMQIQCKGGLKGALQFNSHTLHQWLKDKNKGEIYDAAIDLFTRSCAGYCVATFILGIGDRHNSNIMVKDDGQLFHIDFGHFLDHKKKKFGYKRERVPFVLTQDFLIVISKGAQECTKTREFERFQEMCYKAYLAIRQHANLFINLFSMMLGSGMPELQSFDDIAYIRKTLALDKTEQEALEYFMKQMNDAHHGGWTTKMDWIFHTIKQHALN
Sequence of UniProt P41240 (whole entry, looked up): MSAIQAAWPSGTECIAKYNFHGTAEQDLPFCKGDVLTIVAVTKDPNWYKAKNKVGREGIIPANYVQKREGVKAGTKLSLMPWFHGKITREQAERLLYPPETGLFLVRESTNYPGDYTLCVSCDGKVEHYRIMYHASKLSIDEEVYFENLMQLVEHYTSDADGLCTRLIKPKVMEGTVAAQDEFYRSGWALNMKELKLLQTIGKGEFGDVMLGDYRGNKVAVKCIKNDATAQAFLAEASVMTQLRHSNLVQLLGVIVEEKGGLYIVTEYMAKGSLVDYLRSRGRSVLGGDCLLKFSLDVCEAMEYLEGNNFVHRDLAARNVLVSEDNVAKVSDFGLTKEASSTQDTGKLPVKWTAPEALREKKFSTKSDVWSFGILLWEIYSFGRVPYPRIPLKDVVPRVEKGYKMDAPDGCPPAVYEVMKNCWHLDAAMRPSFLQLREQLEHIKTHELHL
Sequence of UniProt P11802 (whole entry, looked up): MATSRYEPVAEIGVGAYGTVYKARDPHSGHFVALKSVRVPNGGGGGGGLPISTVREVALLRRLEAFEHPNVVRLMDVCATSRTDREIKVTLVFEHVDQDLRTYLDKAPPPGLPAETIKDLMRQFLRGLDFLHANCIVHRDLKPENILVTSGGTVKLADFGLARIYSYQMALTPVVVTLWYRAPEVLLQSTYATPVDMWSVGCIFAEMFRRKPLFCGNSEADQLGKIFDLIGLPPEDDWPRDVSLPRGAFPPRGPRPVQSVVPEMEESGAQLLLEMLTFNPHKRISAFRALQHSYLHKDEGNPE
Sequence of UniProt O15264 (whole entry, looked up): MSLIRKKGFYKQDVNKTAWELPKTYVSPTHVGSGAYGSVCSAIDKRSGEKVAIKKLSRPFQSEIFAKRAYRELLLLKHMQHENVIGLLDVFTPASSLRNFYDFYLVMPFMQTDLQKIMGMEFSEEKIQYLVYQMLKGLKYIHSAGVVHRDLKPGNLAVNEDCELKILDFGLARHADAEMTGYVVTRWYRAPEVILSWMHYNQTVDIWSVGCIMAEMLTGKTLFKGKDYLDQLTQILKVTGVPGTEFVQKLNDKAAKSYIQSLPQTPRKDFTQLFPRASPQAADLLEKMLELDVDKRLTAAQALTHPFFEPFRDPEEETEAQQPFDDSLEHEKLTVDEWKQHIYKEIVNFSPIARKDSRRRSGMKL
Sequence of UniProt Q9UKI8 (whole entry, looked up): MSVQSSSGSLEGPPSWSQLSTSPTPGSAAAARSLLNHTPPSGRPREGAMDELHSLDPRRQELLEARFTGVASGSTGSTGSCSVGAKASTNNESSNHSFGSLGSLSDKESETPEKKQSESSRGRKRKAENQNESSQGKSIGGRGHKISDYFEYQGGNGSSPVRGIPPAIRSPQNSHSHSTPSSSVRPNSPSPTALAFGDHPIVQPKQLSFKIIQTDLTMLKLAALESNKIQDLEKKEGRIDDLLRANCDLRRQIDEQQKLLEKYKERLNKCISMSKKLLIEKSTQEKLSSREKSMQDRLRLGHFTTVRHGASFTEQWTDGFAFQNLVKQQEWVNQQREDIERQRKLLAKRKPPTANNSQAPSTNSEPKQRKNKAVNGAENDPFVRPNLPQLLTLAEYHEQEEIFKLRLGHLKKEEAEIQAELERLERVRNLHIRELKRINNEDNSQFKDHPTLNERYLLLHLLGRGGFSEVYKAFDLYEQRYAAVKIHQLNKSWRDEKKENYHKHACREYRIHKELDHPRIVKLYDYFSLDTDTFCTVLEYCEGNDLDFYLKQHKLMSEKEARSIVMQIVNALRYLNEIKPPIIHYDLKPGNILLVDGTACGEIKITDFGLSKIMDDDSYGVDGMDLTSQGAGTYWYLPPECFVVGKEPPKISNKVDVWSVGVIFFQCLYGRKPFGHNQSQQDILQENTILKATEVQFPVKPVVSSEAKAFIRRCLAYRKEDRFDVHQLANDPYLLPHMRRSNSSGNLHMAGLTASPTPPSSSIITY
Sequence of UniProt Q9Y243 (whole entry, looked up): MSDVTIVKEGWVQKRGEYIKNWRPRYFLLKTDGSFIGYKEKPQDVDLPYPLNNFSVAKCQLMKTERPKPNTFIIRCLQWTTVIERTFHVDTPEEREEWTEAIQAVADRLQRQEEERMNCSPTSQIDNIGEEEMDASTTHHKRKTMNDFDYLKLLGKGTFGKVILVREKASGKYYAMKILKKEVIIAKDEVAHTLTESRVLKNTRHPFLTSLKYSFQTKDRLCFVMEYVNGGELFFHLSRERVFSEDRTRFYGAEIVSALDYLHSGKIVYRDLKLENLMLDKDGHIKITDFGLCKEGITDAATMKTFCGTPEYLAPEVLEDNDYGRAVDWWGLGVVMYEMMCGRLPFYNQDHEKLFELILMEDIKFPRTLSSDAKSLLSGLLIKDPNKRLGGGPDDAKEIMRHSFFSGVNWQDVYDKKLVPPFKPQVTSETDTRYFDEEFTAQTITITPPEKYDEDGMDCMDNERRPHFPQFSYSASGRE

Study 1 — effect on: enzyme activity; mode: inhibitor; tested at: 0.5 µM; relative to: control
Target: Glycogen synthase kinase-3 alpha (GSK3A, Homo sapiens, UniProt P49840)
Sequence of UniProt P49840 (whole entry, looked up): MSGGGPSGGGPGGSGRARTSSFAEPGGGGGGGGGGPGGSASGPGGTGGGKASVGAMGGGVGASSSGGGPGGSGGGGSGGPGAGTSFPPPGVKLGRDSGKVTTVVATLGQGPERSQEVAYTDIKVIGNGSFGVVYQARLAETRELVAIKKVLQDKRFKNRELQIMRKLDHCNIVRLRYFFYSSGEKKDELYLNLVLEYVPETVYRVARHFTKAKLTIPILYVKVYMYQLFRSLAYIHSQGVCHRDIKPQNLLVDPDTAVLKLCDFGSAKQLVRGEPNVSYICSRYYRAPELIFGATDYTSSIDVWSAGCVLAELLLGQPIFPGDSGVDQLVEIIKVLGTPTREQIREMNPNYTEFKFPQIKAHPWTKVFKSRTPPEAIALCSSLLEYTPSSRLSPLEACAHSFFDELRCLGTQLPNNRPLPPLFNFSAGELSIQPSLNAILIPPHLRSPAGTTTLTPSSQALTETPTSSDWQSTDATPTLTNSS
Compound	remaining activity
Cc1nc(-c2ccccc2)c(-c2ccncc2)o1	112%
O=C1NC(=O)C(c2cn(CCCO)c3ncccc23)=C1c1cnccn1	8.56%
N#CC(C#N)=C(N)/C(C#N)=C/c1ccc(O)cc1	91.1%
Nc1ncnc2n[nH]c(Nc3ccc(F)cc3)c12	88.6%
O=C(Nc1cccc(Nc2cc(Nc3cccc(C(F)(F)F)c3)ncn2)c1)C1CC1	101%
Cn1c2ccccc2c2c3c(c4c5ccccc5n(CCC#N)c4c21)CNC3=O	35.6%
Nc1ccc2ncnc(NCCc3ccc(Oc4ccccc4)cc3)c2c1	110%
COc1ccc(C(=O)Nc2sc3c(c2C(N)=O)CCCC3)cc1OC	83.6%
Cc1ccc(NC(=O)c2ccc(CN3CCN(C)CC3)cc2)cc1Nc1nc(-c2cccnc2)cs1	101%
COc1ccc(CNC(=O)Nc2ncc([N+](=O)[O-])s2)cc1	13.5%
Oc1ccc(-c2nc(-c3ccncc3)c(-c3ccc(F)cc3)[nH]2)cc1	91.1%
CN(C)c1ccc(C=C2C(=O)Nc3ccccc32)cc1	104%
O=C(O)c1ccc2c3c1cccc3c(=O)n1c3ccccc3nc21	87.3%

Study 2 — method: aptamer microarray, sandwich; form: DNA with 2'F-ANA; medium: in vitro; tested at: 200 nM; added: Cy3 exosite-II aptamer, 400 nM; direction: higher = stronger binding; oligonucleotide: GGTTGGTGTGGTTGG
Target: Prothrombin, mature alpha-thrombin (F2, Homo sapiens, UniProt P00734)
Setting: whole 15-mer aptamer, many near background
Modification	mean fluorescence intensity [a.u.]
2'F-ANA at 1 4 5 7 8 10 11	47.1
2'F-ANA at 4 5 7 10 13 14 15	43.5
2'F-ANA at 2 3 4 5 8 9 10 12 14 15	421
2'F-ANA at 4 5 7 10 11	45.7
2'F-ANA at 1 2 3 4 5 6 8 11 12 15	95.5
2'F-ANA at 6 8 9 10 12 13 15	149
2'F-ANA at 1 2 3 4 5 6 9 12 13 14	103
2'F-ANA at 4 7 9 10 13 14 15	61.6

Study 3 — effect on: cell-free assay; method: competition with immobilised ligand; tested at: 1 µM
Structure (SMILES): COc1cccc(CNC(=O)c2nc3scc(COCc4ccc(C(=O)O)cc4)c3c(=O)[nH]2)c1
target	remaining binding [%]
Myosin-IIIb (MYO3B, Homo sapiens, UniProt Q8WXR4)	100
EPHB4 (Homo sapiens, UniProt P54760)	89.4
MAP2K3 (Homo sapiens, UniProt P46734)	92.9
PIK3CA (Homo sapiens, UniProt P42336, C420R)	100
STK25 (Homo sapiens, UniProt O00506)	100
PAK3 (Homo sapiens, UniProt O75914)	51.9
RET (Homo sapiens, UniProt P07949, V804L)	76.7
PRKD1 (Homo sapiens, UniProt Q15139)	100
PRKCH (Homo sapiens, UniProt P24723)	83.7
PAK6 (Homo sapiens, UniProt Q9NQU5)	100
Tyrosine-protein kinase ABL1, phosphorylated (ABL1, Homo sapiens, UniProt P00519, T315I)	77.5
IRAK4 (Homo sapiens, UniProt Q9NWZ3)	85
IRAK1 (Homo sapiens, UniProt P51617)	75.6
FGFR3 (Homo sapiens, UniProt P22607, G697C)	80.2
MAPK13 (Homo sapiens, UniProt O15264)	100
AKT3 (Homo sapiens, UniProt Q9Y243)	84.8
Tyrosine-protein kinase ABL1, non-phosphorylated (ABL1, Homo sapiens, UniProt P00519, Q252H)	86.4
TLK1 (Homo sapiens, UniProt Q9UKI8)	100
CDK16 (Homo sapiens, UniProt Q00536)	91.9
Cyclin-dependent kinase 4, with cyclin D1 (CDK4, Homo sapiens, UniProt P11802)	61.7
Myosin-IIIa (MYO3A, Homo sapiens, UniProt Q8NEV4)	88
CSK (Homo sapiens, UniProt P41240)	100

Study 4 — method: RNA Bind-n-Seq; form: RNA; medium: in vitro; tested at: 20 nM; setting: 6-mer, flanks averaged, single round; added: 150 mM LiCl; relative to: input library; direction: higher = stronger binding
Target: TAR DNA-binding protein 43, full length, His tag (TARDBP, Homo sapiens, UniProt Q13148, residues 1-414)
Oligonucleotide	6-mer enrichment (R)
CCAGUU	0.954
GGCGGG	1.31
GGGUCG	1.18
ACACUA	0.88
AGGGGA	1.19
UGUGAU	1.22
UCAUAU	0.919
AGUAAG	0.975

Repeated from above (study 3):
target	remaining binding [%]
STK25 (Homo sapiens, UniProt O00506)	100
IRAK1 (Homo sapiens, UniProt P51617)	75.6
PAK3 (Homo sapiens, UniProt O75914)	51.9
PAK6 (Homo sapiens, UniProt Q9NQU5)	100
